Assay results pooled from the literature.
Compare with care: the assays were run in different laboratories.
B1: calponin-3, human; sequence looked up; chain MTHFNKGPSYGLSAEVKNKIASKYDHQAEEDLRNWIEEVTGMSIGPNFQLGLKDGIILCELINKLQPGSVKKVNESSLNWPQLENIGNFIKAIQAYGMKPHDIFEANDLFENGNMTQVQTTLVALAGLAKTKGFHTTIDIGVKYAEKQTRRFDEGKLKAGQSVIGLQMGTNKCASQAGMTAYGTRRHLYDPKMQTDKPFDQTTISLQMGTNKGASQAGMLAPGTRRDIYDQKLTLQPVDNSTISLQMGTNKVASQKGMSVYGLGRQVYDPKYCAAPTEPVIHNGSQGTGTNGSEISDSDYQAEYPDEYHGEYQDDYPRDYQYSDQGIDY
B2: human AP1B1; sequence looked up; chain MTDSKYFTTTKKGEIFELKAELNSDKKEKKKEAVKKVIASMTVGKDVSALFPDVVNCMQTDNLELKKLVYLYLMNYAKSQPDMAIMAVNTFVKDCEDPNPLIRALAVRTMGCIRVDKITEYLCEPLRKCLKDEDPYVRKTAAVCVAKLHDINAQLVEDQGFLDTLKDLISDSNPMVVANAVAALSEIAESHPSSNLLDLNPQSINKLLTALNECTEWGQIFILDCLANYMPKDDREAQSICERVTPRLSHANSAVVLSAVKVLMKFMEMLSKDLDYYGTLLKKLAPPLVTLLSAEPELQYVALRNINLIVQKRPEILKHEMKVFFVKYNDPIYVKLEKLDIMIRLASQANIAQVLAELKEYATEVDVDFVRKAVRAIGRCAIKVEQSAERCVSTLLDLIQTKVNYVVQEAIVVIKDIFRKYPNKYESVIATLCENLDSLDEPEARAAMIWIVGEYAERIDNADELLESFLEGFHDESTQVQLQLLTAIVKLFLKKPTETQELVQQVLSLATQDSDNPDLRDRGYIYWRLLSTDPVAAKEVVLAEKPLISEETDLIEPTLLDELICYIGTLASVYHKPPSAFVEGGRGVVHKSLPPRTASSESAESPETAPTGAPPGEQPDVIPAQGDLLGDLLNLDLGPPVSGPPLATSSVQMGAVDLLGGGLDSLMGDEPEGIGGTNFVAPPTAAVPANLGAPIGSGLSDLFDLTSGVGTLSGSYVAPKAVWLPAMKAKGLEISGTFTRQVGSISMDLQLTNKALQVMTDFAIQFNRNSFGLAPAAPLQVHAPLSPNQTVEISLPLSTVGSVMKMEPLNNLQVAVKNNIDVFYFSTLYPLHILFVEDGKMDRQMFLATWKDIPNENEAQFQIRDCPLNAEAASSKLQSSNIFTVAKRNVEGQDMLYQSLKLTNGIWVLAELRIQPGNPSCTDLELSLKCRAPEVSQHVYQAYETILKN

| Molecule | target or system | assay | system | conditions | scale | quantity | result |
| --- | --- | --- | --- | --- | --- | --- | --- |
| benzalkonium chloride | Pseudomonas aeruginosa | – | PAO1 | – | – | MIC | 125 µM |
| polymyxin B | Pseudomonas aeruginosa | broth microdilution | PAO1 | – | – | MIC | 0.125 µg/mL |
| polymyxin B | Pseudomonas aeruginosa | broth microdilution | PA14, Mueller-Hinton broth | 24 h, 37 °C | – | MIC | 0.5 µg/mL |
| colistin | Pseudomonas aeruginosa | – | ATCC 27853 | – | – | MIC | 0.25 µg/mL |
| Polymyxin B sulfate | Pseudomonas aeruginosa | broth dilution | PAO1 | 22 to 24 h, 37 °C | – | MIC | 2 µg/mL |
| gentamicin sulfate | Pseudomonas aeruginosa | – | ATCC BAA-2108, resistant | 18 h, 37 °C, dark | – | MIC | 8 µM |
| polymyxin B | Pseudomonas aeruginosa | – | ATCC 10145 | – | – | MIC | 0.7 µg/mL |
| B1 (calponin-3, human) | CYB5R4 knockout human cells | PP4 interaction, 3xFLAG-PP4C IP-MS | – | concentration not given | reference: CYB5R4 KO over parental | log2 fold change | 2.36 |
| colistin trifluoroacetate | Pseudomonas aeruginosa | broth microdilution | PAO1 | – | – | MIC | 0.125 µg/mL |
| B2 (human AP1B1) | CYB5R4 knockout human cells | PP4 interaction, 3xFLAG-PP4C IP-MS | – | concentration not given | reference: CYB5R4 KO over parental | log2 fold change | 1.25 |
| colistin | Pseudomonas aeruginosa | broth microdilution | clinical isolate RKI-No_481/15 | – | – | MIC | 1 µg/mL |
| colistin | Pseudomonas aeruginosa | – | PER-producing clinical isolate R13-23 | – | – | MIC | 0.5 µg/mL |

A few entries again:
| Molecule | target or system | assay | system | conditions | scale | quantity | result |
| --- | --- | --- | --- | --- | --- | --- | --- |
| B1 (calponin-3, human) | CYB5R4 knockout human cells | PP4 interaction, 3xFLAG-PP4C IP-MS | – | concentration not given | reference: CYB5R4 KO over parental | log2 fold change | 2.36 |
